Measured values gathered from unrelated publications.
Each line is one published result; not all experiments were run side by side. Several values in a cell are separate wells, animals, samples, runs or records. ± gives the spread as reported.

| Compound | assay | test system | conditions | scale | measurement | value |
| --- | --- | --- | --- | --- | --- | --- |
| CC(C)n1c(C2CCNCC2)nc2c([N+](=O)[O-])c(Br)c(Br)cc21 | item: Sepsis | AML patients | dose not given, all doses | – | grade ≥3 adverse events | 12% |
| CN1CC[C@@H](c2c(O)cc(O)c3c(=O)cc(-c4ccc(C(F)(F)F)cc4Cl)oc23)[C@@H]1CO | item: Anemia | relapsed AML | oral, 150 mg, grade 3-4, intermittent dosing | – | patients with adverse event | 50% |
| CC(C)[C@@H]1NC(=O)CNC(=O)[C@H](CC(N)=O)NC(=O)[C@H](CCCNC(=N)N)NC(=O)[C@H](Cc2ccc(O)cc2)NC(=O)[C@H](C(C)C)NC(=O)[C@@H](NC(=O)[C@@H](NC(=O)[C@H](CC(N)=O)NC(=O)[C@H](Cc2c[nH]c3ccccc23)NC(=O)[C@H](C)NC(=O)[C@H](Cc2ccccc2)NC(=O)CN)C(C)C)CSSC[C@@H](C(=O)N[C@@H](Cc2cnc[nH]2)C(=O)N[C@@H](CCCNC(=N)N)C(=O)N[C@@H](CCCNC(=N)N)C(=O)N[C@@H](C)C(=O)N[C@@H](CC(N)=O)C(N)=O)NC(=O)[C@H](C(C)C)NC(=O)[C@H](CCCNC(=N)N)NC1=O | – | ICR mouse, blood | intramammary, 5 mg/kg, day 5, 3 d dosing | – | AST | 25 ± 0.67 IU/L |
| O=C(O)CCCOc1ccc(F)cc1-c1cc(-c2ccccc2C(F)(F)F)n(-c2ccccc2)n1 | – | Crl:CD(SD) rat, male, serum | intravenous, 25 µg/kg, 14 days post-dose | – | total protein | 5.7 ± 0.28 g/dL |
| N[C@@H]1c2ccccc2OC12CCN(c1cnc3c(N4CCCc5ncccc54)n[nH]c3n1)CC2 | – | advanced solid tumour patients | oral, 40 mg once daily | – | patients with fatal TEAE | 0% |
| COc1ccc2c(c[n+](C)c3c4cc5c(cc4ccc23)OCO5)c1OC | LC-MS/MS | rat, plasma | dose not given | – | MRT(0-t) | 2.42 h |
| CO[C@H]1C[C@@H]2CC[C@@H](C)[C@@](O)(O2)C(=O)C(=O)N2CCCC[C@H]2C(=O)O[C@H]([C@H](C)C[C@@H]2CC[C@@H](OC(=O)NCCOCCOCCOCCOCCOCCOCCOCCOCCC(=O)N3CCc4cc(Cn5nc(-c6ccc7oc(N)nc7c6)c6c(N)ncnc65)ccc4C3)[C@H](OC)C2)C[C@@H](O)[C@H](C)/C=C(\C)[C@@H](O)[C@@H](OC)C(=O)[C@H](C)C[C@H](C)/C=C/C=C/C=C/1C | phase 1 dose escalation, item: rash | advanced solid tumour patients | intravenous, 10 mg weekly, any grade | – | TRAE incidence | 12.5% |
| CC(=O)c1c(C)c2cnc(Nc3ccc(C4CCN(CCS(C)(=O)=O)CC4)cn3)nc2n(C2CCCC2)c1=O | – | human, plasma | oral, 100 mg twice daily, single dose, monotherapy | – | Vd | 793 L |
| N.N.[Cl][Pt][Cl] | – | mouse, serum | dose not given | – | AST | 123 IU/L and 186 IU/L and 86 IU/L |
| O=C(O)CNCP(=O)(O)O | – | cow whole milk | 2000 nM | relative to: milk fat over skim milk | milk fat partition ratio | 0.21 |
| O=S(=O)(Nc1ccccc1)c1ccc(NC(=S)Nc2ccccc2)cc1 | – | mouse, male, blood | oral, 5 mg/kg daily, 14 days | – | mean corpuscular haemoglobin concentration | 31.4 g/dL |
| COc1ccc(Cc2nccc3cc(C4COC4)ccc23)cc1OC | – | C57BL/6 mouse, female | intravenous | – | toxic dose | ≤ 2 mg/kg |
| C[C@]1(CO)Cc2ncn(-c3ccc(C#N)c(Cl)c3)c2C(=O)O1 | item: abnormal skin odour | human | 80 mg multiple doses, fasted | – | subjects with drug-related TEAE | 0% |
| COc1ccc([C@@H]2CC(=O)c3c(O)cc(O)cc3O2)cc1O | – | male Sprague-Dawley rat, obese | oral, 100 mg/kg of neohesperidin, 12 to 24 h, after β-glucuronidase/sulfatase hydrolysis | – | urinary excreted amount, total | 9340 ± 344 ng |

For quick reference, copied from above:
| Compound | assay | test system | conditions | scale | measurement | value |
| --- | --- | --- | --- | --- | --- | --- |
| COc1ccc2c(c[n+](C)c3c4cc5c(cc4ccc23)OCO5)c1OC | LC-MS/MS | rat, plasma | dose not given | – | MRT(0-t) | 2.42 h |
| CO[C@H]1C[C@@H]2CC[C@@H](C)[C@@](O)(O2)C(=O)C(=O)N2CCCC[C@H]2C(=O)O[C@H]([C@H](C)C[C@@H]2CC[C@@H](OC(=O)NCCOCCOCCOCCOCCOCCOCCOCCOCCC(=O)N3CCc4cc(Cn5nc(-c6ccc7oc(N)nc7c6)c6c(N)ncnc65)ccc4C3)[C@H](OC)C2)C[C@@H](O)[C@H](C)/C=C(\C)[C@@H](O)[C@@H](OC)C(=O)[C@H](C)C[C@H](C)/C=C/C=C/C=C/1C | phase 1 dose escalation, item: rash | advanced solid tumour patients | intravenous, 10 mg weekly, any grade | – | TRAE incidence | 12.5% |
